Experimental data pooled from the literature.
Each numbered part is a random draw from the data of one study; scales do not carry over between parts. Changes are numbered by the printed parent chain.

Sample 1
Target: CCND2, cyclin fold, Cln2 fusion (human)
Technique: yeast growth competition, sequencing
Medium: yeast
Notes: weak parent motif
Reference: not given
Direction: higher = stronger binding
Starting sequence: TICRR docking peptide (human); TKVRRNLFNQELL
| Variant | normalised enrichment score |
| --- | --- |
| L13A | 0.414 |
| E11A | 0.274 |
| R5K | -0.0588 |
| N9A | 0.25 |
| R4A | -0.0212 |
| Q10A | 0.107 |
| K2A | 0.681 |

Sample 2
Target: RNA binding protein fox-1 homolog 2, RRM domain, GST-SBP tag (RBFOX2, Homo sapiens, UniProt O43251-10, residues 100-194)
Technique: RNA Bind-n-Seq
Molecule type: RNA
Medium: in vitro
Concentration: 365 nM
Notes: natural RNA segment, single round, ends assumed
Reference: no-protein control
Direction: higher = stronger binding
Residues (chain): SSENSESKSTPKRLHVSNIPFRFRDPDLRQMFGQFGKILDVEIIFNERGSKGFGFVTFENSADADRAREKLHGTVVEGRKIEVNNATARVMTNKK
| Sequence | RBNS enrichment (R) |
| --- | --- |
| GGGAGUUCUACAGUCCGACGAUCACGACAACAAUUCCACGAUGCCAAAUUCAUGGCAGACAUUGAUCUGGAUCCAGGCUGUACAUUGAAUAAAAAGAUUCGAAAUGCACAGUUAGCACAGUAUAACUUCAUUUUGGAAUUCUCGGGUGCCAA | 0.226 |
| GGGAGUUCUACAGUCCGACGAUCGUAUUGUGCCUUGUGGUGAGAUAUAAAUUAUGGCCAUGGGAAACAUUGUAUAUUUAGUGUGUGUAUUUUGAUAAUGAUUGAUCUUAAAUCUGUAUACAGAAUAUCAUUGAUGGAAUUCUCGGGUGCCAA | 1.14 |
| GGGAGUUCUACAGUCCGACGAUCUAUAGAUAUAAGCACCUCUCUAAAGAAUCUUUAGUUUCCGACGUUGAAUUAUAGACCAGUUUGAGUAAGUACUGCUUUUUUUUUUUGGAGACGGGCUCUCGCUCUGUUGCUGGAAUUCUCGGGUGCCAA | 0.417 |
| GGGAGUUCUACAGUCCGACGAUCUGUAUGAGAUCUGUGCUGUAAGGCUCCCAGUGUUCCUUCAGCAUUAAUGCUUUCCCACCUGCUCCAAGAGAACUAGCCCUCAACCAGUGCUGCGGCCUGUUCAUAUGCUCUGGAAUUCUCGGGUGCCAA | 0.568 |
| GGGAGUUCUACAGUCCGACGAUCGCUGGGAUUACAGGUGUGAGCCACCACGCCCGGCCGAUUUGGGGCAUUUUUAUUUAACAGAACUUCUCUAACCUUCCAACUGCUUCCCACAAACACAUUGGCCUCAAGGCUGGAAUUCUCGGGUGCCAA | 1.57 |
| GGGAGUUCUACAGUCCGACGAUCUAGAGUAGCAUAUUAGACAACAGUCAUCAUUGCAAGUAGGAGGACCGUAAAUGGCAUUUUACAUGACUGCAAGUAUUGUUAUACCGAAUCCUAUUUUAAAAGAGUUUUAGUGGAAUUCUCGGGUGCCAA | 0.565 |
| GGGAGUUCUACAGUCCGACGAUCGCCCCCCUUUGAAGAACUUUCUAUGCAGAAAUAGAUGGUCAGGGUUUCGGAUUUGCAGUGAUGUGUCUUCCGGUGGCAAUGGACAGGGAAGGAGCACCCAUGUCCACUGGUGGAAUUCUCGGGUGCCAA | 0.736 |
| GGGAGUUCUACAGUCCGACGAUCUGCUCAGCUCUGCUUAUAGCUAUACCUGCCUCUUAGGUCUUCUGUUUGCCCGUUUCUGAGGUCAGAUGGAUGGAUGUCUGAUGUCUUCCUGUGUUUUCCCUCGAUCUCUCUGGAAUUCUCGGGUGCCAA | 0.339 |
| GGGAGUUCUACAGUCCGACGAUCCUUAUACAUGGAUGGCAGCAGGCAAAGAGAGAACUUGUGCAGGGGAACUCUUUAUAAAACCGUCCGAUCUUGUGAGACUUAUUCACUAUCACAAGAACAGCACAGGAAAGUGGAAUUCUCGGGUGCCAA | 0.435 |
| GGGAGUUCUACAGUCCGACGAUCUUAGCAGAAUUACAGAUCUUAAGUACUAACUGCAGUCCAAGAUGGAAGAGUACUCAGCAGCCACUGCCCUCAUCAGGAACCUCCUCGGCAUCCAUCAGUCUCCUCACUGCUGGAAUUCUCGGGUGCCAA | 0.306 |
| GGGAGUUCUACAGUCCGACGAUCGUACAUGACUGUAUAAUUACGAUUAUAGUACCACUGCACAUCAUGUUUUUUUUUUUAAGACAAAAAAGAUGUUUAAAGACCAAAAACUGUGCUGAGAAAGUAUGCCCCACUGGAAUUCUCGGGUGCCAA | 0.574 |
| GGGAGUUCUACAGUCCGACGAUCACAAGAGAGCAGAGAAUCUGCUGAUGUGGCUGCGCUUACUUUUAGUGACUUUAUGUACUUAUAUUAACAGCUGGAAAUAGGUUGUUGGGUUUUGAGCAGGCUGUUAUAGUUGGAAUUCUCGGGUGCCAA | 0.574 |

Sample 3
Target: Histone acetyltransferase KAT6A, winged helix 1, GST fusion (KAT6A, Homo sapiens, UniProt Q92794, residues 1-85)
Technique: protein binding microarray
Molecule type: double-stranded DNA, one strand shown
Medium: in vitro
Concentration: not given
Notes: 8-mer, flanks averaged, mean of 2 arrays, mostly near background
Reference: not given
Direction: higher = stronger binding
Target sequence (chain): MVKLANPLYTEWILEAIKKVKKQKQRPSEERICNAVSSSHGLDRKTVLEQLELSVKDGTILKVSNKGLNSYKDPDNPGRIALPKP
| Sequence | E-score |
| --- | --- |
| GATACTTA | -0.142 |
| CCCCCTTA | -0.0987 |
| ATCATGAT | -0.179 |
| GGAGCTAC | -0.0259 |
| GGCTACTA | 0.095 |
| GACGGATC | 0.161 |
| AAATTCTG | -0.0559 |
| ATTGAACG | -0.0743 |
| AGCGTACT | 0.137 |
| CTCTTCTC | 0.0241 |
| GAAAAGAC | -0.116 |
| AACGGTTA | 0.114 |
| CTGAGGTA | -0.137 |
| CAGCACCC | 0.07 |
| ACTAAGCC | 0.0573 |
| GCTCGCTA | 0.0429 |

Sample 4
Target: Fragile X messenger ribonucleoprotein 1, C-terminal low-complexity region (Fmr1, Mus musculus, UniProt P35922)
Technique: RNA Bind-n-Seq
Molecule type: RNA
Medium: in vitro
Concentration: 200 nM
Notes: whole 134-nt RNA, ends assumed
Together with: 150 mM KCl
Reference: input library
Direction: higher = stronger binding
| Sequence | log2 enrichment |
| --- | --- |
| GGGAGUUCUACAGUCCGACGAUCAGUCCUGUGCUACACAUCGUAUGUACCGAAUCGGGAAAAGGAAAAGGGGAAAAGGGGAAAGUAUUAUGUUACGCCGUUCGGAUCUGCACUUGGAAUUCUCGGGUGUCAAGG | 0.165 |
| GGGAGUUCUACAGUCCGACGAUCGUCCUGUGCUACACAUCGUAUGUACCGAAUCGGGCCCCCGGGCCCCCGGGCCCCCGGGGAAAGUAUUAUGUUACGCCGUUCGGAUCUGCAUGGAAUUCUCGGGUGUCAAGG | -0.827 |
| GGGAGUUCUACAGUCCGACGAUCUGGCCCUGGUGGCAUGCGGGGAGGAAGAGGUGGCCUCAUGGAUCGUGGUGGUCCUGGUGGAAUGUUCAGAGGUGGCCGUGGUGGAGACAGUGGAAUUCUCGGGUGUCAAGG | 0.164 |
| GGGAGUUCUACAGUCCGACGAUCGUGCUACACAUCGUAUGUACCGAAUCGGGGAAAAAAAGGGGAAAAAAAGGGGAAAAAAAGGGGAAAGUAUUAUGUUACGCCGUUCGGAUCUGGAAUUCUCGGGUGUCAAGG | -0.0254 |
| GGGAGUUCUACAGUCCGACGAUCUCCUGUGCUACACAUCGUAUGUACCGAAUCGGGGUUUUUUUGGGGAAAGGGGUUUGGGGAAAGUAUUAUGUUACGCCGUUCGGAUCUGCAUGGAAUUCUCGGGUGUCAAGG | 0.555 |
| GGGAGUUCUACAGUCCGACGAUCUCCUGUGCUACACAUCGUAUGUACCGAAUCAAAUUUUUUUAAAUUUAAAUUUUUUUAAAAAAGUAUUAUGUUACGCCGUUCGGAUCUGCAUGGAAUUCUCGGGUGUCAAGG | -0.343 |
| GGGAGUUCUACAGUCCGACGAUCUGGCCCUGGCGGCAUGCGGGGAGGAAGAGGUGGCCUCAUGGAUCGUGGUGGUCCCGGUGGAAUGUUCAGAGGUGGCCGUGGUGGAGACAGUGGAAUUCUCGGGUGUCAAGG | -0.0777 |
| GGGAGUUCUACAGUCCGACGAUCUCUAGAUACAGAUGCACGAUUUGGCCAUGGAUCCGACUACUCUCGCCAACAGAACAGAUUUAAUGACUUUGAUCACCGAGAGAGGGGCAGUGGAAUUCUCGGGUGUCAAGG | -0.321 |
| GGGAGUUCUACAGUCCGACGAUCUGGGUUCUUAUUUCUAACUUGCAUAUGUUUUGUUUUUCAGAAGGAGUUGAGCCUUCCAAGAAGAGGCAGCUUGUAAGUAGAUGAUUAUUAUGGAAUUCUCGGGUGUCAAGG | -1.13 |
| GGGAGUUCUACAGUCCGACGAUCAGUCCUGUGCUACACAUCGUAUGUACCGAAUCGGGGCCCCGGGCCCCGGGGCCCCGGAAAGUAUUAUGUUACGCCGUUCGGAUCUGCACUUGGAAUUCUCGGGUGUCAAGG | -0.0567 |

Further values, each from its own experiment
| Molecule | target | assay | system | setting | how to read | endpoint | value |
| --- | --- | --- | --- | --- | --- | --- | --- |
| PhoQ, residues 284 288 289 292 302 303 SSTLLI | PhoP, residues 12 14 15 18 19 LWHSL (Escherichia coli, UniProt P23836) | Sort-seq, measured: YFP reporter | E. coli | PhoQ-PhoP variant library, together with: 10 µM Mg2+ | reference: high Mg2+ state, higher = stronger signaling | fold induction | 7.64 |

Excerpt of the above (sample 2):
| Sequence | RBNS enrichment (R) |
| --- | --- |
| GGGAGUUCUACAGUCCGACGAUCUAGAGUAGCAUAUUAGACAACAGUCAUCAUUGCAAGUAGGAGGACCGUAAAUGGCAUUUUACAUGACUGCAAGUAUUGUUAUACCGAAUCCUAUUUUAAAAGAGUUUUAGUGGAAUUCUCGGGUGCCAA | 0.565 |
| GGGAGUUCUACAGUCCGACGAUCGCCCCCCUUUGAAGAACUUUCUAUGCAGAAAUAGAUGGUCAGGGUUUCGGAUUUGCAGUGAUGUGUCUUCCGGUGGCAAUGGACAGGGAAGGAGCACCCAUGUCCACUGGUGGAAUUCUCGGGUGCCAA | 0.736 |
| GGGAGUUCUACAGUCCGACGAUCUGCUCAGCUCUGCUUAUAGCUAUACCUGCCUCUUAGGUCUUCUGUUUGCCCGUUUCUGAGGUCAGAUGGAUGGAUGUCUGAUGUCUUCCUGUGUUUUCCCUCGAUCUCUCUGGAAUUCUCGGGUGCCAA | 0.339 |
| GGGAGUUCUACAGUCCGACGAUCCUUAUACAUGGAUGGCAGCAGGCAAAGAGAGAACUUGUGCAGGGGAACUCUUUAUAAAACCGUCCGAUCUUGUGAGACUUAUUCACUAUCACAAGAACAGCACAGGAAAGUGGAAUUCUCGGGUGCCAA | 0.435 |
| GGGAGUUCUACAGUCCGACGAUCUUAGCAGAAUUACAGAUCUUAAGUACUAACUGCAGUCCAAGAUGGAAGAGUACUCAGCAGCCACUGCCCUCAUCAGGAACCUCCUCGGCAUCCAUCAGUCUCCUCACUGCUGGAAUUCUCGGGUGCCAA | 0.306 |
